Measurements gathered from unrelated publications.
A part holds a random share of what one study measured. Changes are numbered by the printed parent chain.

Study 1
Target: Centromere-binding protein 1, full length, N-terminal tag (CBF1, Saccharomyces cerevisiae, UniProt P17106, residues 1-351)
Sequence of UniProt P17106 (whole entry, looked up): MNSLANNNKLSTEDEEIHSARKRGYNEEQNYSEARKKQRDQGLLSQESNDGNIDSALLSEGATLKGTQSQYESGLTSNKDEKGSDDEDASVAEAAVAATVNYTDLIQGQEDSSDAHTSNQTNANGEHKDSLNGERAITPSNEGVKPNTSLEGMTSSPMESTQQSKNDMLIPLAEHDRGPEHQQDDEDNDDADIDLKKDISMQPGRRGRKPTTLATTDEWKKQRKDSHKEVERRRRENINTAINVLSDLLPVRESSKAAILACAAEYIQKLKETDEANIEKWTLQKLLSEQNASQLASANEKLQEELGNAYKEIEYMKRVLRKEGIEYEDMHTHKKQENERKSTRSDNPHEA
Technique: protein-binding microarray
Molecule type: double-stranded DNA, one strand shown
Matrix: in vitro
Concentration: 0.8 µM
Setting: whole 60-bp probe, no competitor
Reading: higher = stronger binding
| Strand | fluorescence intensity [a.u.] |
| --- | --- |
| TGTACGAAGCTATAGCACGTTCCTATAGTAGTTAGGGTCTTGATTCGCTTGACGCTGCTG | 720 |
| GAATGTGGACCCCTACAGGCGTGATTTTCTGTCTAGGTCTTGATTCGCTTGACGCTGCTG | 540 |
| GAACTGGAAATCCAAAACGTGATCGTGAGCCACTAGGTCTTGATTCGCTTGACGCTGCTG | 1830 |
| CTAAGAAAAATGGCTGATGTAGTTGAAAAAGGTTTCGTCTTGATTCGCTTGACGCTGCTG | 517 |
| CTAAAGTATATAAGCAGCGTGATTGTCCGATCGTTCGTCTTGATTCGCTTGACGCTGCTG | 630 |
| CTAAAATTCCACCATCACCTATCAACTAATGGTTTCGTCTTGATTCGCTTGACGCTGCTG | 508 |
| CTACGGTTAATTGAAAACGTGGAAAAGTATCGATTCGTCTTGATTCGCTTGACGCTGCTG | 575 |
| CTAAACAATTACCAACATGTGGTACATATTGGATTCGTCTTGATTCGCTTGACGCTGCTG | 1080 |
| GAACTACCAAAAGATCACCTGAGGATAATTTTTTAGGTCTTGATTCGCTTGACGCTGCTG | 1090 |
| TGTACGAAGCTATAGCACGTTGATATAGTAGTTAGGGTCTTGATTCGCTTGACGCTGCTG | 632 |
| CTAAATTTTTCGCGTACCACCACCATTACACATTTCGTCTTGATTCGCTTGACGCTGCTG | 552 |
| CTAACCAAAAAATTGCACGAGAAAGAATGTCTTTTCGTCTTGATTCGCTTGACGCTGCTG | 570 |
| CTATATACTAGGTATTTACACGTGAAAGTATTGTTCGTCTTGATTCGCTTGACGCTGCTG | 3340 |
| GAAGATTTTGAGCGTGATATTATTCCAATGGCTTAGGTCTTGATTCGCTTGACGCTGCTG | 615 |
| GAACTTTCTATGTGTATCACCTGTTATACGTGTTAGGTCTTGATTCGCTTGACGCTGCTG | 918 |
| TGTACGAAGCTATAATTCACCACTATAGTAGTTAGGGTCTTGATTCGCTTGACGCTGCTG | 521 |

Study 2
Target: PABPC1L2, full length, GST fusion (mouse, UniProt A0ABA7IW68)
Technique: RNAcompete
Molecule type: RNA
Matrix: in vitro
Concentration: 20 nM
Setting: 7-mer, probes averaged, single round
Reference: mean of 7-mers
Reading: higher = stronger binding
Construct (chain): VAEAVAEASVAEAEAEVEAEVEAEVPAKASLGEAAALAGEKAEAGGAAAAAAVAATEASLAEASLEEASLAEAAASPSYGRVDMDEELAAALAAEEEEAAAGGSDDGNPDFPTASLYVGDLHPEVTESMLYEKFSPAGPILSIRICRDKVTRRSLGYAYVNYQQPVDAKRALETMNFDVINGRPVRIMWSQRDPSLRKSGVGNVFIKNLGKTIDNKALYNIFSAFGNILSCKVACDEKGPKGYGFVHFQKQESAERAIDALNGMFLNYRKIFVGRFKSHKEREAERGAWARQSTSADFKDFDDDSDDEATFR
| Strand | 7-mer Z-score |
| --- | --- |
| UCAUGUU | -0.414 |
| UCACCUA | -0.233 |
| UAAUCUA | -0.0917 |
| UUUAGCA | -0.119 |
| GAGAUAG | -0.0518 |
| GGAACAU | 0.177 |
| CCGGUUA | -0.269 |
| CCACAUG | -0.311 |
| AAGGGUG | 0.419 |
| ACCGGCG | -0.15 |
| GAUUGUC | -0.249 |
| ACGAGGG | 0.151 |

Study 3
Target: CCNA1, cyclin fold, Cln2 fusion (human)
Technique: yeast growth competition, sequencing
Matrix: yeast
Setting: weak parent motif
Reference: not given
Reading: higher = stronger binding
Parent: NPAT docking peptide (human); PCHRRVLCFDSTT; partner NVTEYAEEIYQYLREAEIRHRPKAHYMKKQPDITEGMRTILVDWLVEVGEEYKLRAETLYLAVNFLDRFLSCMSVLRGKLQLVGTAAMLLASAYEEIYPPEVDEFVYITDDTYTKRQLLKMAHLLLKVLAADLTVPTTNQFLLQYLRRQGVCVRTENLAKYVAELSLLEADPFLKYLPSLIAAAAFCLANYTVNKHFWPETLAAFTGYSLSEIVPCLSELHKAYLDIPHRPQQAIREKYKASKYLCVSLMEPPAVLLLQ
| Substitution | normalised enrichment score |
| --- | --- |
| PCHRRVLCADSTT [F9A] | 0.0674 |
| PCHRRVLCFDATT [S11A] | -0.0574 |
| PCHRKVLCLDSTT [R5K F9L] | 0.266 |
| PCHRRVLCFDSTA [T13A] | -0.0224 |
| PCHARVLCFDSTT [R4A] | 0.223 |
| PCHRRALCFDSTT [V6A] | 0.271 |
| PCHRRVACFDSTT [L7A] | 0.0311 |

Further values, each from its own experiment
| Molecule | target | test | test system | conditions | scale | measurement | result |
| --- | --- | --- | --- | --- | --- | --- | --- |
| PhoQ, residues 284 288 289 292 302 303 SVHLDV | PhoP, residues 12 14 15 18 19 GHCSL (Escherichia coli, UniProt P23836) | Sort-seq, measured: YFP reporter | E. coli | PhoQ-PhoP variant library, with: 10 µM Mg2+ | reference: high Mg2+ state, higher = stronger signaling | fold induction | 8.38 |

A few entries again (study 1):
| Strand | fluorescence intensity [a.u.] |
| --- | --- |
| TGTACGAAGCTATAGCACGTTCCTATAGTAGTTAGGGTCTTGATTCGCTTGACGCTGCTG | 720 |
| GAATGTGGACCCCTACAGGCGTGATTTTCTGTCTAGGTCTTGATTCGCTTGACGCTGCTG | 540 |
